# Measurements pooled from the literature.
# Protocols differ between the studies behind these lines. “And” joins repeats or separate records; there may be more than shown. ± gives the spread as reported.
Structure (SMILES),assay,system,conditions,how to read,quantity,result
O=C1/C(=C/c2ccc(O)c(O)c2)Oc2c1c(O)cc(O)c2-c1ccc(O)c(O)c1,,"mouse, CCl4-induced liver injury","intragastric, 200 or 100 mg/kg, 10 days pretreatment",,serum AST level,decreased
C[C@H](NC(=O)COC(=O)[C@H](C)NC(=O)CO)C(=O)O,,water,"pH 8, 25 °C",,depolymerization rate constant,3.96 h⁻¹
CC(C)c1cnc(-c2cc(Cl)ccc2F)cc1Nc1ccncc1C(=O)NC(CO)CO,,human,"250 mg, with: enzalutamide",,PSA decrease,45.9%
COC(=O)N1c2ccc3c(nc(Cc4ccccc4)n3[C@@H]3CCC[C@@H](C(=O)O)C3)c2CC[C@@H]1C,,"mice, breast cancer PDX","oral, 50 mg/kg, 45 days, ER+, TGI above 60%",,responding models,20%
CCCCCCCCNc1ccc(C(=O)O)cc1S(=O)(=O)N(C)C,,"hippocampal neurons 3 DIV, mouse","10 µM, with: GABA 100 µM",reference: DMSO,Ca2+ influx,decreased
CC(=O)C1=C(C)NC(=O)NC1c1ccc(F)cc1F (centres unmarked),DPPH radical scavenging,,,reference: gallic acid,antioxidant potency ratio,~2.9 fold and ~3 fold
C=CC(=O)Nc1cccc(-c2cnc3[nH]cc(C(=O)NC(C)(C)C)c3n2)c1,,"mouse, NK-S1 xenograft, tumour","ip, 50 mg/kg, up to",,duration of phospho-STAT5 suppression,24 h
CCCCCCCCCCCCCCCC(=O)NCCCC[C@H](N)C(=O)N[C@@H](CC(=O)O)C(=O)N[C@H](C(=O)N[C@@H](Cc1c[nH]cn1)C(=O)N[C@@H](Cc1ccccc1)C(=O)N[C@@H](CCCNC(=N)N)C(=O)N[C@H](C(=O)N[C@@H](Cc1ccccc1)C(=O)N[C@@H](CCCNC(=N)N)C(=O)N[C@@H](CO)C(=O)N[C@@H](Cc1c[nH]cn1)C(=O)N[C@@H](CO)C(=O)N[C@@H](CC(=O)O)C(=O)N[C@@H](Cc1ccc(O)cc1)C(=O)N[C@@H](CCCNC(=N)N)C(=O)N[C@@H](CCCNC(=N)N)C(=O)N[C@H](C(=O)O)[C@@H](C)CC)[C@@H](C)O)[C@@H](C)O,,"C57BL/6J mouse, MCD diet","intraperitoneal, 0.6 nmol/g, 3 weeks, 3 times weekly",,blood glucose,93.8 ± 3.9 mg/dL
COc1ccc2c(c1)c(CC(=O)OCC(=O)OC(C)(C)C)c(C)n2C(=O)c1ccc(Cl)cc1,hot plate test,BALB/c mice,"50 mg/kg, 60 min",,latency of nociceptive response,15.8 ± 0.66 s
Cc1cc(O)c(C=O)c2c1C(=O)Oc1c(CO)c(O)c3c(c1O2)C(O)OC3=O (centres unmarked),,"rat, male, streptozotocin-induced diabetes","10 mg/kg, 0 weeks",,fasting plasma glucose,326 ± 4.73 mg/dL
COc1c2c(cc3oc(C)cc(=O)c13)O[C@H](C(C)(C)O[C@@H]1O[C@H](CO)[C@@H](O)[C@H](O)[C@H]1O)C2,analgesic effect,mouse,"oral, 2 mg/kg, 2 h",,hot plate latency,10.4 ± 1.75 s
N=C(N)NCCC[C@@H]1NC(=O)[C@H](CCCNC(=N)N)NC(=O)[C@H](CCCNC(=N)N)NC(=O)[C@H](Cc2ccc3ccccc3c2)NC(=O)[C@H](Cc2c[nH]c3ccccc23)NC(=O)[C@H](Cc2ccc3ccccc3c2)NC(=O)[C@H](CCCNC(=N)N)NC1=O,,bacterial mimic liposomes,"5 µg/mL, 40 min",,calcein leakage,~20%
CCCCC1NC(=O)c2ccccc21 (racemic),Longa method,Sprague Dawley rat pMCAO model,"intraperitoneal, 50 mg/kg, 2 h after occlusion onset",reference: model group,neurological deficit score,decreased
O=C(O)C1OC(Oc2cccc(-c3nc(N4CCOCC4)c4oc5ncccc5c4n3)c2)C(O)C(O)C1O (centres unmarked),glucuronide formation,dog liver microsomes,,,Vmax,432 ± 15 pmol/min/mg
CCCCCCCCCCCCCCCC(=O)N[C@@H](CCC(=O)NCCCC[C@H](NC(=O)[C@H](CC(=O)O)NC(=O)[C@H](CO)NC(=O)[C@@H](NC(=O)[C@H](Cc1ccccc1)NC(=O)[C@@H](NC(=O)CNC(=O)[C@H](CCC(N)=O)NC(=O)[C@H](CO)NC(=O)[C@@H](N)Cc1c[nH]cn1)[C@@H](C)O)[C@@H](C)O)C(=O)N[C@@H](CO)C(=O)N[C@@H](CCC(=O)O)C(=O)N[C@@H](Cc1ccc(O)cc1)C(=O)N[C@@H](CC(C)C)C(=O)N[C@@H](CC(=O)O)C(=O)N[C@@H](CO)C(=O)N[C@@H](CCC(=O)O)C(=O)N[C@@H](CCCNC(=N)N)C(=O)N[C@@H](C)C(=O)N[C@@H](CCCNC(=N)N)C(=O)N[C@@H](CC(=O)O)C(=O)N[C@@H](Cc1ccccc1)C(=O)N[C@H](C(=O)N[C@@H](C)C(=O)N[C@@H](Cc1c[nH]c2ccccc12)C(=O)N[C@@H](CC(C)C)C(=O)N[C@@H](CCC(=O)O)C(=O)N[C@@H](C)C(=O)NCC(=O)NCC(=O)O)C(C)C)C(=O)O,,diet-induced obese mouse,"subcutaneous, 10 nmol/kg daily, days 0-16",reference: vehicle,food intake reduction,19%
Cc1nc(C)c(C=[N+]([O-])C(C)(C)C)nc1C,"Western blot, item: Nrf2","mouse, MPTP model, substantia nigra nuclei",90 mg/kg,,protein level increase,41.2%
CC[C@H]1[C@@H](O)[C@@H]2[C@H](CC[C@]3(C)[C@@H]([C@H](C)CCOS(=O)(=O)[O-])CC[C@@H]23)[C@@]2(C)CC[C@@H](O)C[C@@H]12.[Na+],histology,"ob/ob NASH mouse model, liver","oral, 3 mg/kg once daily, 8 weeks, scale 0 to 3",direction not given,inflammation score,2.2 ± 0.2
CC[C@H](C)[C@@H]1NC(=O)[C@H](Cc2ccc(O)cc2)NC(=O)[C@@H](N)CSSC[C@@H](C(=O)NCC(=O)N[C@@H](CCCCNC(=O)COCCOCCNC(=O)COCCOCCNC(=O)CC[C@H](NC(=O)CC[C@H](NC(=O)CCCCCCCCCCCCCCCCC(=O)O)C(=O)O)C(=O)O)C(=O)NCC(N)=O)NC(=O)[C@H](CC(N)=O)NC(=O)[C@H](CCC(N)=O)NC1=O,,"C57BL/6 mice, diet-induced obese","subcutaneous, 2 µmol/kg daily, 14 days",reference: vehicle,body weight change,-6.7 ± 1.7%
COc1ccc(C2CC(c3ccc(C)cc3)=Nc3ccccc3S2)cc1OC (centres unmarked),,"Wistar rat, STZ-induced diabetes, serum","10 mg/kg, 28 days",,LDL cholesterol,121 ± 4.67 mg/dL
O=C(/C=C(O)/C=C/c1cccs1)/C=C/c1cccs1,FRAP,,,,antioxidant capacity,0.01 Trolox equivalents
CCCC[C@@H]1NC(=O)[C@H](Cc2ccc(O)cc2)NC(=O)[C@@H]2CCCN2C(=O)[C@H](CC(=O)O)NC(=O)[C@H](C)NC(=O)[C@H](Cc2ccccc2)NC(=O)[C@@H]2CSCCC(=O)N3CN(CN(C3)C(=O)CCSC[C@@H](C(=O)N[C@@H](C)C(N)=O)NC1=O)C(=O)CCSC[C@H](NC(C)=O)C(=O)N[C@@H](CC(C)(C)C)C(=O)N1CCC[C@H]1C(=O)N[C@@H](CCC(=O)O)C(=O)N[C@H](CCCCNC(=O)CCc1cn(CCOCCOCCOCCN(CCOCCOCCOCCC(=O)N[C@@H](C)C(=O)N[C@@H](CCCCNC(=N)N)C(=O)N[C@@H](CC(=O)O)C(=O)N[C@H]3CSCCC(=O)N4CN5CN(C4)C(=O)CCSC[C@H](NC(=O)[C@H](CC(C)C)NC(=O)[C@@H]4CCCN4C(=O)[C@H](CC(N)=O)NC(=O)[C@H](C(C)C)NC(=O)[C@H](CC(C)C)NC(=O)[C@@H]4C[C@@H](O)CN4C3=O)C(=O)N[C@@H](CC(C)C)C(=O)N[C@@H](Cc3c[nH]cn3)C(=O)N3CCC[C@H]3C(=O)N[C@H](CC(=O)O)C(=O)N[C@@H](Cc3c[nH]c4ccccc34)C(=O)N[C@@H](CCCCNC(=N)N)C(=O)N[C@H](C(N)=O)CSCCC5=O)CCOCCOCCOCCn3cc(CCC(=O)NCCCC[C@H]4NC(=O)[C@H](CCC(=O)O)NC(=O)[C@@H]5CCCN5C(=O)[C@H](CC(C)(C)C)NC(=O)[C@@H](NC(C)=O)CSCCC(=O)N5CN6CN(C5)C(=O)CCSC[C@H](NC(=O)[C@H](Cc5ccc(O)cc5)NC(=O)[C@@H]5CCCN5C4=O)C(=O)N[C@@H](Cc4ccccc4)C(=O)N[C@@H](C)C(=O)N[C@@H](CC(=O)O)C(=O)N4CCC[C@H]4C(=O)N[C@@H](Cc4ccc(O)cc4)C(=O)N[C@@H](CCCC)C(=O)N[C@H](C(=O)N[C@@H](C)C(N)=O)CSCCC6=O)nn3)nn1)C(=O)N1CCC[C@H]1C(=O)N[C@@H](Cc1ccc(O)cc1)C(=O)N2,NanoString,"mouse MC-38 tumour, tumour","intravenous, 15 mg/kg, every 3 days x3",,macrophage score,increased
CC=C1C(OC2OC(CO)C(O)C(O)C2O)OC=C(C(=O)OC)C1CC(=O)OCC1OC(OCCc2ccc(O)cc2)C(O)C(O)C1O (centres unmarked),item: butyric acid,"tumour-bearing mice, faeces","oral, 109.2 mg/kg daily, 10 days",reference: untreated tumour group,faecal short-chain fatty acid increase,38.3%
CC(=O)[O-].O.O.O.O.[Co+2].[O-]c1ccc(Br)cc1C=NCCN1CCOCC1,FRAP,,240 µM,,ferric reducing power,61.8%
O=C(OC(C(F)(F)F)C(F)(F)F)N1CCC(CNS(=O)(=O)c2ccc(Cl)cc2)CC1,item: other monoacylglycerols,"mouse, whole brain","oral, 10 and 30 mg/kg",,monoacylglycerol levels,no effect
CC(C)=CCCC(C)=CCc1cc(-c2coc3cc(OC4OC(C(=O)O)C(O)C(O)C4O)ccc3c2=O)ccc1O (centres unmarked),"glucuronidation, substrate",rabbit liver microsomes,,,Vmax,2860 ± 249 pmol/min/mg
CCCCCCOC(=O)Cc1c(C)n(C(=O)c2ccc(Cl)cc2)c2ccc(OC)cc12,hot plate test,BALB/c mice,"50 mg/kg, 90 min",,latency of nociceptive response,15.1 ± 1.27 s
CN(C)C(=O)c1ccnc(N2Cc3cn(Cc4ccc(F)cc4F)nc3C2)n1,"myelinated axon density, electron microscopy","mouse cuprizone diet, corpus callosum",unit not given,reference: control-diet-fed mice,effect size d,-0.09
COc1ccc(-c2nnc(COc3cc(-c4nc5ccccc5s4)ccc3OC)o2)cc1OC,hind limb tonic extension,"albino mouse, MES-induced seizure","ip, 4.0 h",,minimal effective dose,30 mg/kg
CSCC[C@H](NC(=O)[C@H](CO)NC(=O)[C@@H](N)CO)C(=O)N[C@@H](CCCCN)C(=O)N[C@@H](CC(C)C)C(=O)N[C@@H](CO)C(=O)N[C@@H](Cc1ccccc1)C(=O)N[C@@H](CCCNC(=N)N)C(=O)N[C@@H](C)C(=O)N[C@@H](CCCNC(=N)N)C(=O)N[C@@H](C)C(=O)N[C@@H](Cc1ccc(O)cc1)C(=O)NCC(=O)N[C@@H](Cc1ccccc1)C(=O)N[C@@H](CCCNC(=N)N)C(=O)NCC(=O)N1CCC[C@H]1C(=O)NCC(=O)N1CCC[C@H]1C(=O)N[C@@H](CCC(N)=O)C(=O)N[C@@H](CC(C)C)C(=O)O,oral glucose tolerance test,DIO mouse,"oral, 2 µg/g, 0 min, day 1, 8 h fast",,blood glucose,143 ± 8.84 mg/dL
COC(=O)C1OC(Oc2c(-c3ccccc3)oc3cc(O)c(O)c(O)c3c2=O)C(O)C(O)C1O (centres unmarked),"ELISA, item: IL-6","Balb/c mouse, serum","oral, 5 mg/kg, with: LPS",,serum concentration,134 pg/mL
C[N+]1=C(C=CC=CC=C2N(CCCCCC(=O)NCCCC[C@H](NC(=O)[C@@H](CCC(=O)O)NC(=O)[C@@H](CCC(=O)O)NC(=O)[C@@H](CCC(=O)O)NC(=O)CCCCCNC(=O)C3CCC(CNC(=O)CC[C@H](NC(=O)N[C@@H](CCC(=O)O)C(=O)O)C(=O)O)CC3)C(N)=O)c3ccc4ccccc4c3C2(C)C)C(C)(C)c2c1ccc1ccccc21 (some centres unmarked),fluorescence molecular tomography,"mouse, PC-3 flu tumour xenograft, PC-3 flu tumour","iv, 1 nmol, 24 h",,probe amount in tumour,4.5 ± 0.8 pmol
N#Cc1cnc2cc(OCC3CCNCC3)c(F)cc2c1Nc1cc(F)c(OCc2cccc(Cl)n2)cc1Cl,,"C57BL/6J mice, partial hepatectomy","po, 50 mg/kg twice daily, 40 h after hepatectomy, 70% partial hepatectomy",reference: vehicle,liver to body weight ratio,increased

# Repeated from above:
Structure (SMILES),assay,system,conditions,how to read,quantity,result
CC[C@H](C)[C@@H]1NC(=O)[C@H](Cc2ccc(O)cc2)NC(=O)[C@@H](N)CSSC[C@@H](C(=O)NCC(=O)N[C@@H](CCCCNC(=O)COCCOCCNC(=O)COCCOCCNC(=O)CC[C@H](NC(=O)CC[C@H](NC(=O)CCCCCCCCCCCCCCCCC(=O)O)C(=O)O)C(=O)O)C(=O)NCC(N)=O)NC(=O)[C@H](CC(N)=O)NC(=O)[C@H](CCC(N)=O)NC1=O,,"C57BL/6 mice, diet-induced obese","subcutaneous, 2 µmol/kg daily, 14 days",reference: vehicle,body weight change,-6.7 ± 1.7%
COc1ccc(C2CC(c3ccc(C)cc3)=Nc3ccccc3S2)cc1OC (centres unmarked),,"Wistar rat, STZ-induced diabetes, serum","10 mg/kg, 28 days",,LDL cholesterol,121 ± 4.67 mg/dL
O=C(/C=C(O)/C=C/c1cccs1)/C=C/c1cccs1,FRAP,,,,antioxidant capacity,0.01 Trolox equivalents
